Published values collected from several papers.
Compare with care: the assays were run in different laboratories. ± marks the error that the study gave.
Target: Cytochrome P450 1A2 (CYP1A2, Homo sapiens, UniProt P05177)
Chain of UniProt P05177 (whole entry, looked up): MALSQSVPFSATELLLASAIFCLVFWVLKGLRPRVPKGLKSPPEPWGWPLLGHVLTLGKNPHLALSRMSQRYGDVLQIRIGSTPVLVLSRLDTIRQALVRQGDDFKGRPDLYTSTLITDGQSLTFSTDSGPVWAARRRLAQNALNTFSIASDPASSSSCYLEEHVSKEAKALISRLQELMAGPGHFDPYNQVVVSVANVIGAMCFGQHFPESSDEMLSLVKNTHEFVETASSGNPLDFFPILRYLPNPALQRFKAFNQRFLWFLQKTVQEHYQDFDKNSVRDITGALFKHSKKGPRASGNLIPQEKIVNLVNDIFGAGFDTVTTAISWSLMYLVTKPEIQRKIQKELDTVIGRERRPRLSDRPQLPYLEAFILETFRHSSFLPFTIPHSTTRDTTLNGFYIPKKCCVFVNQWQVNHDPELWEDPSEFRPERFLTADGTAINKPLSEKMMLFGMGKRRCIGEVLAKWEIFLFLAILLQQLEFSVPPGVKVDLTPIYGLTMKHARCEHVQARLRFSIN
Action: inhibitor

O=c1cc(-c2ccccc2)oc2ccc(O)cc12 — IC50 (enzyme activity, LC-MS/MS, item: acetaminophen; human liver microsomes; 30 min, pH 7.4, added: phenacetin): 2.9 ± 0.35 µM
CCOC(=O)[C@@]12C[C@@H]1[C@@H](n1ccc3c(NC)nc(C#Cc4ccc(Cl)s4)nc31)[C@H](O)[C@@H]2O — IC50 (enzyme activity; human liver microsomes; 10 min, pH 7.4, added: tacrine substrate): 26 µM
O=C(NCCN1CCCC1)c1cc(-c2ccc(CN3CCOCC3)cc2)nc2ccc(F)cc12 — IC50 (enzyme activity; human liver microsomes; added: phenacetin): > 100 µM
COc1ccc2oc(-c3ccccc3)c(OC)c(=O)c2c1 — IC50 (enzyme activity, LC-MS/MS, item: acetaminophen; human liver microsomes; 30 min, pH 7.4, added: phenacetin): 5.55 ± 0.46 µM
Cc1cc(O[C@@H]2CCOC2)cc(C(=O)Nc2nc(C)cs2)n1 — IC50: > 30 µM
Cc1nc(-c2cnc(NC(C)C)n(C)c2=O)ccc1Oc1ccnc(-c2cnn(C)c2)c1 — IC50 (direct inhibition; no preincubation): > 100 µM
O=c1c(O)c(-c2ccccc2)oc2ccccc12 — IC50 (enzyme activity, LC-MS/MS, item: acetaminophen; human liver microsomes; 30 min, pH 7.4, added: phenacetin): 1.37 ± 0.13 µM
Cc1cccnc1C(=O)Nc1ccc(N2C(=O)c3cccc(Cl)c3C2=O)c(Cl)c1 — IC50 (enzyme activity): > 30 µM
C=CCn1c(=O)c2cnc(Nc3ccc(N4CCN(C)CC4)cc3)nc2n1-c1ccc2c(n1)[C@@](O)(CC)CC2 — IC50: 50 µM
O=C(O)/C=C/c1ccccc1 — IC50 (enzyme activity): > 337 µM
